Published values pooled from the literature.
Lines come from different studies, so protocols differ. Several values in a cell are separate wells, animals, samples, runs or records.

C=CCn1c(=O)c2cnc(Nc3ccc(N4CCN(C)CC4)cc3)nc2n1-c1ccc2c(n1)[C@@](O)(CC)CC2: “EdU-negative S phase mitotic cells” 1.37% (NCI-H1048; flow cytometry; concentration not given).
Under Bcl-2 level, CC(C)[C@H](NC(=O)c1cc(Cl)ccc1OCCNC(=O)OC(C)(C)C)C(=O)Nc1ccc([N+](=O)[O-])cc1Cl is recorded as “decreased” (MDA-MB-231; Western blot; 1, 5, 10 µM, 48 h).
O=C(/C=C/N1C[C@H]2C[C@@H]1CN2c1ccccn1)c1ccccc1O gave a viability of 70.3% (HBL-1; 0.5 µM, 120 h).
With CC[C@H](C)C(=O)O[C@H]1CCC=C2C=C[C@H](C)[C@H](CC[C@@H]3C[C@@H](O)CC(=O)O3)[C@H]21 the inhibition was 80.8% (BT-12; cell viability, MTT; 10 µM, 72 h).
CCn1cc(-c2cc(Cn3ccnc3)cc3c2CCN([C@H](c2cc(OC)ccn2)C2CC2)C3=O)c(C(F)(F)F)n1 gave an EC50 of > 30 µM (KNS-62; cell growth, inhibitor; 120 h).
With Cc1[nH]c2ccccc2c1CCNCc1ccc(/C=C/C(=O)NO)cc1 the viability was 0.14% (HBL-1; 1 µM, 120 h).
The GI50 of O=C(/C=C/C=C/C=C/C1CCCCC1)NC1=C[C@@](O)(/C=C/C=C/C=C/C(=O)NC2=C(O)CCC2=O)[C@@H]2O[C@@H]2C1=O is reported as 16.3 µM (PANC-1; cell growth, CellTiter-Glo; 78 h).
CC[S+]([O-])c1nc(-c2cccc(OCc3ccccc3)c2)cc(C(F)(F)F)n1 (centres unmarked) — result for “cells with nuclear RelA”: 90.1% and 86.8% (HeLa Kyoto; RelA nuclear import, high content imaging; 1.58 µM, 3 h, added: 1 µM PMA, 60 min).
CCCN1CCN(c2cccc(-c3cnccc3N3CCCC4(CCNC4=O)C3)c2)CC1 (centres unmarked) — result for activity: “inactive” (COLO 205; TCF/LEF reporter gene, inhibitor; concentration not given).
For C#CCCC(=O)SCCNC(=O)CCNC(=O)[C@H](O)C(C)(C)COP(=O)(O)OP(=O)(O)OC[C@H]1O[C@@H](n2cnc3c(N)ncnc32)[C@H](O)[C@@H]1OP(=O)(O)O, the viability was 123% (HBL-1; 0.1 µM, 120 h).
Nc1n[nH]c2nc(-c3cccc(O)c3)cc(-c3cc4cc(Cl)ccc4nc3N3CCOCC3)c12 has a selectivity ratio of 0.831 (NFS-60; MTT; relative to: WI-38 EC50 over NFS-60 IC50).
With COc1cc2c(NC3CCN(C(C)C)CC3)nc(N3CCC(F)(F)CC3)nc2cc1OCCCN1CCCC1 the viability was 97.5% (HBL-1; 1 µM, 120 h).
For N#Cc1cnc2cnc(NCc3cccnc3)cc2c1Nc1ccc(F)c(Cl)c1, the inhibition was 100% (HeLa expressing Ub(G76V)-GFP; Ub(G76V)-GFP degradation, cycloheximide chase; 12 µM).
Under “log2 fold change”, CCc1cnc(N2CCC(c3nc(COc4ccc(-n5cnnn5)cc4)cs3)CC2)nc1 is recorded as 2.95 (HEK293T; RNA-seq, item: CHAC1 mRNA; 10 µM, 6 h; relative to: vehicle).
CCN(CC)C(=O)c1ccc(Nc2nc(OCC3CCCCC3)c3[nH]cnc3n2)cc1 gave an inhibition of 38% (HeLa expressing Ub(G76V)-GFP; Ub(G76V)-GFP degradation, cycloheximide chase; 12 µM).
With O=C(O)CCNc1cc(N2CCc3ccccc3CC2)nc(-c2ccccn2)n1 the viability was 101% (HBL-1; 1 µM, 120 h).
For C=CC1=C(C)c2cc3[n-]c(cc4nc(cc5[n-]c(cc1n2)c(C)c5C=C)C(C)=C4CCC(=O)O)c(CCC(=O)O)c3C.[Zn+2], the fold change was 2.93 (SH-SY5Y; RNA-seq, item: UBASH3B mRNA; 5 µM, 5 h; relative to: untreated cells).
Clc1ccc(-c2csc(NN=C3CCCC3)n2)cc1 gave a viability of 103% (HBL-1; 0.1 µM, 120 h).
CCN(CC)Cc1ccc2cc(COC(=O)Nc3ccc(C(=O)NO)cc3)ccc2c1 has an inhibition of 92.3% (BT-12; cell viability, MTT; 10 µM, 72 h).
CCOc1nc(NC(=O)Cc2cc(OC)ccc2OC)cc(N)c1C#N gave an inhibition of 29% (HeLa expressing Ub(G76V)-GFP; Ub(G76V)-GFP degradation, cycloheximide chase; 12 µM).
Cc1c(C(=O)O)ccc2c3n(nc12)[C@@H]1[C@H](C3)N(CC2CC2)[C@@]2(C(=O)Nc3cc(Cl)ccc32)[C@H]1c1cccc(Cl)c1F has a GI50 of 0.00045 µM (SNU-719; cell proliferation, alamarBlue).
For O=c1oc2c(O)c(O)cc3c(=O)oc4c(O)c(O)cc1c4c23, the viability was 95.9% (HBL-1; 1 µM, 120 h).
Under mRNA level, Cc1ccccc1Cn1cc(-c2cccc(NC(=O)Nc3ccc(F)cc3)c2)nn1 is recorded as “decreased” (Huh-7; RT-PCR, item: H2AX; 10 µM, 72 h).

Some of these lines once more:
The GI50 of O=C(/C=C/C=C/C=C/C1CCCCC1)NC1=C[C@@](O)(/C=C/C=C/C=C/C(=O)NC2=C(O)CCC2=O)[C@@H]2O[C@@H]2C1=O is reported as 16.3 µM (PANC-1; cell growth, CellTiter-Glo; 78 h).
CC[S+]([O-])c1nc(-c2cccc(OCc3ccccc3)c2)cc(C(F)(F)F)n1 (centres unmarked) — result for “cells with nuclear RelA”: 90.1% and 86.8% (HeLa Kyoto; RelA nuclear import, high content imaging; 1.58 µM, 3 h, added: 1 µM PMA, 60 min).
CCCN1CCN(c2cccc(-c3cnccc3N3CCCC4(CCNC4=O)C3)c2)CC1 (centres unmarked) — result for activity: “inactive” (COLO 205; TCF/LEF reporter gene, inhibitor; concentration not given).
